Results collected from several papers.
Lines come from different studies, so protocols differ. Values joined by “and” are separate records of one study, mostly repeats; a detail may differ. ± marks the error that the study gave.
Ugcg: Ceramide glucosyltransferase (Ugcg, Mus musculus, UniProt O88693)
UniProt O88693, sequence (whole entry, looked up): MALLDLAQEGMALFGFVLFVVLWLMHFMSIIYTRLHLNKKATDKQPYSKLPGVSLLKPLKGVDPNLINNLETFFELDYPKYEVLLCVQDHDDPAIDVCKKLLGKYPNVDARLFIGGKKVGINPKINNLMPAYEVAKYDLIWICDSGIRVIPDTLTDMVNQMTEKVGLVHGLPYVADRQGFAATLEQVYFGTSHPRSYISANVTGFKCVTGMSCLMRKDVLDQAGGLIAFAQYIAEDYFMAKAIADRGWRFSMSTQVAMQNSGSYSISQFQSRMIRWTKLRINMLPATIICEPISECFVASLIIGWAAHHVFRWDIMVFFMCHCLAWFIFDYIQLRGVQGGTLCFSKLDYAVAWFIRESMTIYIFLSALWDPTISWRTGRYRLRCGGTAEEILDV
UniProt Q92887, sequence (whole entry, looked up): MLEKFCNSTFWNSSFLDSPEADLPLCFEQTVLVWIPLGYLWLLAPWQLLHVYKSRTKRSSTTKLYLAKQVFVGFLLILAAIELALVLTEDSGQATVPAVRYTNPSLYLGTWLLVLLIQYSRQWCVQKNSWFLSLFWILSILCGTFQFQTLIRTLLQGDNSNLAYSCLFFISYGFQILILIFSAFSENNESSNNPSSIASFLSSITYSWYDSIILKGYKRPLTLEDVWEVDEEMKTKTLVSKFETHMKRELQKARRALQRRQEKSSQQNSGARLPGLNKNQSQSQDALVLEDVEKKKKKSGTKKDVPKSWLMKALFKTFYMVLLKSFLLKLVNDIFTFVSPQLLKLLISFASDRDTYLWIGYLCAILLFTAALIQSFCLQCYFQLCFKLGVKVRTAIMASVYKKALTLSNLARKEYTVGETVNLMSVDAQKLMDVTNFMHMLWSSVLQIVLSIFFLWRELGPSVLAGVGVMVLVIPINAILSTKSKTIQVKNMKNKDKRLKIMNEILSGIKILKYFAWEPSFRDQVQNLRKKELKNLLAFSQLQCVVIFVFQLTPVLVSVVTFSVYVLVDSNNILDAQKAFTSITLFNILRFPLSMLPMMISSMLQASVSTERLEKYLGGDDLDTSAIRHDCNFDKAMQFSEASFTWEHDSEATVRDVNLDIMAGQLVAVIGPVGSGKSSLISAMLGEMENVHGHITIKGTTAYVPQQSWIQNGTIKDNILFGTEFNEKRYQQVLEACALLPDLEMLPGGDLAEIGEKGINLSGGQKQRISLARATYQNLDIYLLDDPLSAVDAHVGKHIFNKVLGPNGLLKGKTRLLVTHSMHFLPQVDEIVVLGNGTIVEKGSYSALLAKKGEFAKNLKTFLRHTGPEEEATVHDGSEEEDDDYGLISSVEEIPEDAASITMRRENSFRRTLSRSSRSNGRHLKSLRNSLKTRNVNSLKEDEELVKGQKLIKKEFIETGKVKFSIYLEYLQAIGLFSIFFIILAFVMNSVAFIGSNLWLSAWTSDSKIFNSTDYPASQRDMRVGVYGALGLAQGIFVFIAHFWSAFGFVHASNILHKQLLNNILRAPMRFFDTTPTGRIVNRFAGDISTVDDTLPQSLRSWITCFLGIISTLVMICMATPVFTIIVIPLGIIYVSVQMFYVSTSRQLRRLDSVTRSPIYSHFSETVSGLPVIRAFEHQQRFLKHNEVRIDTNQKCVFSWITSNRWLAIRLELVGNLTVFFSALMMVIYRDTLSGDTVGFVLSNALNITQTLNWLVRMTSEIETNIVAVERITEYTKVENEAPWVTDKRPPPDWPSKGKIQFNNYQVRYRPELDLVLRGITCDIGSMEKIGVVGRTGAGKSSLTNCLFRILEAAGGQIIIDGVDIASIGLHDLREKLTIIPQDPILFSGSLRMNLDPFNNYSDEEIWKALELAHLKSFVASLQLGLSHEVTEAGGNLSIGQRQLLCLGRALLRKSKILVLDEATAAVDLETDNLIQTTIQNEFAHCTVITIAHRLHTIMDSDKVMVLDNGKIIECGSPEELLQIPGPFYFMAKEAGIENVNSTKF
UniProt O15264, sequence (whole entry, looked up): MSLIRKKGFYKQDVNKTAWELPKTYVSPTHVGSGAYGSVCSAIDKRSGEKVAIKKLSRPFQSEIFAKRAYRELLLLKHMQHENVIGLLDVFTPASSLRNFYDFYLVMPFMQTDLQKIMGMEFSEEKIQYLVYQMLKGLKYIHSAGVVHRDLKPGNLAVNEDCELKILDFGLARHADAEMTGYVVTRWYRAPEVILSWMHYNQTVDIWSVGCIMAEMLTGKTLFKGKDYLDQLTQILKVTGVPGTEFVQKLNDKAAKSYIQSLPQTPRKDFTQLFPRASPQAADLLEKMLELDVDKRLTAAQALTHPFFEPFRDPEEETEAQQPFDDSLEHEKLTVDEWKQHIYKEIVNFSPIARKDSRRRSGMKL
UniProt P10632, sequence (whole entry, looked up): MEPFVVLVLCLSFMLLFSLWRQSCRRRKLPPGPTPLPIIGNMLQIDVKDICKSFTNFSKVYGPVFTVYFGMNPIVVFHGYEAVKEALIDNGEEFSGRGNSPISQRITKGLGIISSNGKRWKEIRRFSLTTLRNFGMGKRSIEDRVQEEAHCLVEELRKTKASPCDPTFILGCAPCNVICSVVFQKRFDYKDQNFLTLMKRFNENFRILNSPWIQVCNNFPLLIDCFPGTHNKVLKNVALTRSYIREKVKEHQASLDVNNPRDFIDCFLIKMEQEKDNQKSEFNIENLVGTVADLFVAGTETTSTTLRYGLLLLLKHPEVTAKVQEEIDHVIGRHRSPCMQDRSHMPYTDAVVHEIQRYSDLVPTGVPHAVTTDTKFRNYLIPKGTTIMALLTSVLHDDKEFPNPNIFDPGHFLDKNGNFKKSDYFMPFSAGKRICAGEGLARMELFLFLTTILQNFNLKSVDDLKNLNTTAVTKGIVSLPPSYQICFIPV

SMILES | tested on | test | test system | conditions | how to read | measurement | result
N#C[C@@H]1CCCN1C(=O)CNC(=O)c1ccnc2ccc(OCCCN3CCN(C(=O)CCc4ccc5c(c4)CN4CCN6CC(=O)[O][68Ga-]([O]C(=O)C4)([O]5)[O]c4ccc(CCC(=O)N5CCN(CCCOc7ccc8nccc(C(=O)NCC(=O)N9CCC[C@H]9C#N)c8c7)CC5)cc4C6)CC3)cc12 | U-87 MG tumour model |  | host not given, blood | 1 h, tumour-bearing |  | tracer uptake | 2.65 %ID/g
COc1cc(/C=C/C=C2\SC(=S)NC2=O)ccc1O | HEK-293T | CellTiter-Glo |  | 40 µM, 24 h, unit not given | reference: untreated | viability | 0.983 and 1.05
CN1CCC(c2ccc(-c3ccc([C@H]4[C@@H](F)[C@@H](F)C[C@@H](F)[C@H]4F)cc3)cn2)CC1 |  | hepatocyte stability | cryopreserved human hepatocytes | 1 µM |  | hepatic clearance | 9.5 mL/min/kg
OC[C@@H]1[C@@H](O)[C@H](O)[C@@H](O)CN1CCCCCOCCc1ccsc1 | Ugcg | enzyme activity, inhibitor | RAW264.7 | in situ, together with: C6-NBD-ceramide |  | IC50 | 380 nM
O=C(NCCO)c1ccc(C2CCCCC2)cc1 |  | liver microsome stability | rat liver microsomes | 1 µM |  | hepatic clearance | 49 mL/min/kg
CCN(CC)CC#CCNc1ccnc2cc(Cl)ccc12 | Salmonella typhimurium | mini-Ames test | TA97a | 250.0 µg/well, with rat liver S9 |  | revertants | 1 revertants/well
COC1CN([C@H]2CC[C@H]([C@@]3(C)Oc4c(Cl)cc(C(=O)NCc5c(SC)cc(C)[nH]c5=O)c(C)c4O3)CC2)C1 |  | RNA-seq, refers to: LRRC2 | human, whole blood | dose not given, 24 h | reference: pretreatment baseline | log2 fold change | 1.84
CNC(=O)C1CCCN(C(=O)C2CC3CCC2N3C(=O)[C@@H]2C[C@@H](O)CN2C(=O)NCc2cccc(Cl)c2F)C1 (mixture of isomers) | Cytochrome P450 2C8 (CYP2C8, Homo sapiens, UniProt P10632) | enzyme activity, inhibitor | human, liver microsomes |  |  | IC50 | > 50000 nM
OC[C@@H]1[C@@H](O)[C@H](O)[C@@H](O)CN1CCCCCOCc1ccc(-c2ccccc2)c(C(F)(F)F)c1 | Ugcg | enzyme activity, inhibitor, fluorescence |  |  |  | IC50 | 25 nM
O=C(CC1CCOCC1)Nc1ccc([C@H]2[C@@H](F)[C@@H](F)C[C@@H](F)[C@H]2F)cc1 |  | hepatocyte stability | cryopreserved human hepatocytes | 1 µM |  | hepatic clearance | 6.2 mL/min/kg
COc1cccc(OC)c1-c1cc(C(=O)NC2(C(=O)O)C3CC4CC(C3)CC2C4)nn1-c1ccc(C(=O)N(C)CCOCCN(C)C(=O)[C@H](CCCCNC(=O)[C@H](CC(C)C)NC(=O)C2OC2C(=O)O)NC(=O)CN2CCN(CC(=O)[O-])CCN(CC(=O)[O-])CCN(CC(=O)[O-])CC2)cc1C(C)C.[177Lu+3] (mixture of isomers) | HT-29 tumour model |  | host not given, stomach | 72 h, tumour-bearing |  | tracer uptake | 0.072 %ID/g
CC(C)C[C@@H]1NC(=O)[C@H](CO)NC(=O)[C@H](CC(=O)O)NC(=O)[C@@H]2CCCN2C(=O)[C@H]2CCCN2C(=O)[C@H](C(C)C)NC(=O)[C@H](CC(=O)O)NC(=O)[C@H](CC(N)=O)NC(=O)[C@H](CCCNC(=N)N)NC(=O)[C@H]([C@@H](C)O)NC(=O)[C@H](C(C)C)NC(=O)CCNC(=O)CCNC(=O)[C@H](Cc2ccccc2)NC(=O)[C@H](C(C)C)NC(=O)[C@H](CC(C)C)NC1=O | HEK-293T | subcellular fractionation LC-MS | nuclear fraction | 20 µM, 24 h |  | peptide amount | not detected
O=C1C2CC3CC1CC(C(=O)N1CCN(c4ccc([N+](=O)[O-])c5ncccc45)CC1)(C3)C2 | Salmonella typhimurium | Ames test | TA1535 | 0.02 µg/well, with S9 activation |  | revertant colony count | 1 colonies/well
Nc1ncc(-c2cc(-c3cnn(CC(F)(F)F)c3)ncc2F)nc1C(=O)NC1CNCC(F)C1 (stereo not drawn) | CSNK1E | KINOMEscan |  | 1 µM | reference: DMSO control | remaining binding | 77%
O=C1NC2(CC2)COc2ncc(F)cc2[C@H]2COCCN2c2ccn3ncc1c3n2 | Salmonella typhimurium | Ames test | TA98 | 50 µg/plate, 48 h, together with: rat liver S9 |  | revertant colonies | 22 ± 5 revertants/plate
O=C(N/N=C/c1cc[n+](CC2CC2)c2ccccc12)c1cccc(C(=O)N/N=C/c2cc[n+](CC3CC3)c3ccccc23)n1 | 22CTA telomeric G4-DNA antiparallel | FRET melting |  | 1 µM, K10 buffer, DNA 0.2 µM |  | ΔTm | 19.9 ± 0.6 °C
CN(C)c1cccc(-c2ccc(C3CCCCC3)cc2)c1 |  | liver microsome stability | cynomolgus liver microsomes | 1 µM |  | hepatic clearance | 34 mL/min/kg
N#C[C@@H]1CC(F)(F)CN1C(=O)CNC(=O)c1ccnc2c(NC(=O)CCOCCOCCOCCOCCOCCOCCNC(=O)[C@H](CCCCNC(=O)CN3CCN(CC(=O)[O-])CCN(CC(=O)[O-])CCN(CC(=O)[O-])CC3)NC(=O)CCCc3ccc(I)cc3)cccc12.[177Lu+3] | U-87 MG tumour model |  | host not given, stomach | 48 h, tumour-bearing |  | tracer uptake | 0.11 %ID/g
O=C(c1ccc([C@H]2[C@@H](F)[C@@H](F)C[C@@H](F)[C@H]2F)cc1)N1CCC(F)CC1 |  | hepatocyte stability | cryopreserved mouse hepatocytes | 1 µM |  | hepatic clearance | 72 mL/min/kg
O=C(c1ccc(OCCN2CCCCC2)cc1)c1c(-c2ccc(O[C@@H]3O[C@H](C(=O)O)[C@@H](O)[C@H](O)[C@H]3O)cc2)sc2cc(O[C@@H]3O[C@H](C(=O)O)[C@@H](O)[C@H](O)[C@H]3O)ccc12 | ABCC2 (Homo sapiens, UniProt Q92887) | substrate | Sf9 membrane vesicles | pH 7 |  | intrinsic clearance | 41.3 µL/min/mg protein
Cc1nn(-c2cccc(N)c2)c(=O)c2cnc(Nc3ccc(N4CCNCC4)cc3)nc12 | MAPK13 (Homo sapiens, UniProt O15264) | SelectScreen kinase |  |  |  | IC50 | > 10000 nM

Repeated from above:
SMILES | tested on | test | test system | conditions | how to read | measurement | result
CN(C)c1cccc(-c2ccc(C3CCCCC3)cc2)c1 |  | liver microsome stability | cynomolgus liver microsomes | 1 µM |  | hepatic clearance | 34 mL/min/kg
N#C[C@@H]1CC(F)(F)CN1C(=O)CNC(=O)c1ccnc2c(NC(=O)CCOCCOCCOCCOCCOCCOCCNC(=O)[C@H](CCCCNC(=O)CN3CCN(CC(=O)[O-])CCN(CC(=O)[O-])CCN(CC(=O)[O-])CC3)NC(=O)CCCc3ccc(I)cc3)cccc12.[177Lu+3] | U-87 MG tumour model |  | host not given, stomach | 48 h, tumour-bearing |  | tracer uptake | 0.11 %ID/g
O=C(c1ccc([C@H]2[C@@H](F)[C@@H](F)C[C@@H](F)[C@H]2F)cc1)N1CCC(F)CC1 |  | hepatocyte stability | cryopreserved mouse hepatocytes | 1 µM |  | hepatic clearance | 72 mL/min/kg
